Measured values gathered from unrelated publications.
Parts stem from different laboratories: compare values within a part only. Substitutions count along the parent as printed.

Series 1
Target: Ras GTPase-activating protein-binding protein 1, C-terminal RGG region (G3BP1, Homo sapiens, UniProt Q13283)
Chain of UniProt Q13283 (whole entry, looked up): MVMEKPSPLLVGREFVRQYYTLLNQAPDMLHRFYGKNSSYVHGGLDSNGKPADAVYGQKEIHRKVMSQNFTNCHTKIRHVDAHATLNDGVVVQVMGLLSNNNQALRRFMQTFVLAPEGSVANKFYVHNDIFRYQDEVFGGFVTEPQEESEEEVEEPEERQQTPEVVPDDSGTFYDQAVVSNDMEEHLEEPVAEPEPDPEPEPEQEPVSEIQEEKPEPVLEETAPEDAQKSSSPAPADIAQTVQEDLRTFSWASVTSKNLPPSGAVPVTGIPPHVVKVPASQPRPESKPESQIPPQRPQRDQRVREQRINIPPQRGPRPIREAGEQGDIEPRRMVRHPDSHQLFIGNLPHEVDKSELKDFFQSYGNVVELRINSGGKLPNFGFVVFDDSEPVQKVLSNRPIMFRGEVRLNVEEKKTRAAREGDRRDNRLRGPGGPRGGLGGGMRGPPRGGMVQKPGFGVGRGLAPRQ
Technique: RNA Bind-n-Seq
Molecule type: RNA
Sample: in vitro
Tested at: 1 µM
Setting: whole 134-nt RNA, ends assumed
With: 150 mM KCl
Reference: input library
Reading: higher = stronger binding
All sequences stand within: GGGAGUUCUACAGUCCGACGAUC … UGGAAUUCUCGGGUGUCAAGG
| Oligonucleotide | log2 enrichment |
| --- | --- |
| AAGUCCUGUGCUACACAUCGUAUGUACCGAAUCGGUUUUGGGGUUUUGGGUUUUGGAAAGUAUUAUGUUACGCCGUUCGGAUCUGCACUU | -1.15 |
| AGUCCUGUGCUACACAUCGUAUGUACCGAAUCGGGGAAAGGGGUGGGGUUUUUGGGGAAAGUAUUAUGUUACGCCGUUCGGAUCUGCACU | 1.44 |
| GUCCUGUGCUACACAUCGUAUGUACCGAAUCGGUUUUUUGGUUUUUUGGUUUUUUGGGAAAGUAUUAUGUUACGCCGUUCGGAUCUGCAC | -1.5 |
| UUUGGUUAUGAACAGGAUUCGGAUUCACGUCUUGCCAACCAAUCGGGGGAGGAUCACUCCAGUGCCCAGGUCUCAGGAACCUCUGUCUUG | -0.352 |
| UGCGUGCUUGUGUCCUGGAGCUGGAAGAGCGGCUGAGCACGCAGGAGGGCUUGGUGCAAGAGCUUCAGAAAAAACAGGUGGAAUUGCAGG | -1.19 |
| CACAGACAACACGCACCCACACAGACACAGAGGGAAGGGGUUGGGAUGGGGACAGGGUGCACAGCAGGGCGGGGUAGGACCCCAGCCCCU | -0.08 |
| AAGUCCUGUGCUACACAUCGUAUGUACCGAAUCGGGGAGGGGUUUGGGGAAAGGGGAAAGUAUUAUGUUACGCCGUUCGGAUCUGCACUU | 3.23 |
| AGUCCUGUGCUACACAUCGUAUGUACCGAAUCGGGGUUUGGGGUUUUUGGGGAGGGGAAAGUAUUAUGUUACGCCGUUCGGAUCUGCACU | 2.41 |

Series 2
Target: PABPC1L2, full length, GST fusion (mouse, UniProt A0ABA7IW68)
Technique: RNAcompete
Molecule type: RNA
Sample: in vitro
Tested at: 20 nM
Setting: 7-mer, probes averaged, single round
Reference: mean of 7-mers
Reading: higher = stronger binding
Construct (chain): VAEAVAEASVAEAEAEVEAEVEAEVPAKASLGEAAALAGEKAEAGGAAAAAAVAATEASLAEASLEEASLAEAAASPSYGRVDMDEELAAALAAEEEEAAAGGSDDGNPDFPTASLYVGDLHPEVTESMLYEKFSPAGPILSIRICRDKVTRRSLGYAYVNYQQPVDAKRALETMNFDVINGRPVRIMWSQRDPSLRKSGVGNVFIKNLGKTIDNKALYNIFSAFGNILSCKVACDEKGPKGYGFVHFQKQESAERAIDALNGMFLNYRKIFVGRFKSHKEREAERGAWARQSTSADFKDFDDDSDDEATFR
| Oligonucleotide | 7-mer Z-score |
| --- | --- |
| GACAUUU | -0.253 |
| CCUAGUG | -0.24 |
| GUGCUGC | -0.137 |
| UAUAGGU | -0.233 |
| UUGUUUU | -0.365 |
| UUGUCGA | -0.258 |

Series 3
Target: FOSL1, bZIP domain (human)
Technique: DHFR protein complementation
Sample: yeast
Setting: single substitutions, most at no-binding floor
Reference: wild-type JUN-FOS pair
Reading: higher = stronger binding
Starting sequence: JUN, bZIP domain (human); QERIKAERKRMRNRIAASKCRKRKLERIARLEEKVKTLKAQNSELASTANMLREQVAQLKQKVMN; partner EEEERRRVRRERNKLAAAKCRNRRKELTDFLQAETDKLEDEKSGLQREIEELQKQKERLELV
| Variant | binding fitness [natural log] |
| --- | --- |
| S43F | -0.466 |
| S43Q | -0.311 |
| T37V | -0.386 |
| Q55R | -0.592 |
| A49T | -1.19 |
| R30M | -0.273 |
| L38E | -1.45 |
| L45Y | -1.07 |
| Q41S | -1.49 |
| T37K | -0.37 |

Further values, each from its own experiment
| Molecule | target | test | system | conditions | scale | quantity | value |
| --- | --- | --- | --- | --- | --- | --- | --- |
| PhoQ, residues 284 288 289 292 302 303 GLASVI | PhoP, residues 12 14 15 18 19 HHYTI (Escherichia coli, UniProt P23836) | Sort-seq, refers to: YFP reporter | E. coli | PhoQ-PhoP variant library, with: 10 µM Mg2+ | reference: high Mg2+ state, higher = stronger signaling | fold induction | 24.3 |

Repeated from above (series 2):
| Oligonucleotide | 7-mer Z-score |
| --- | --- |
| GACAUUU | -0.253 |
| UUGUCGA | -0.258 |
| UUGUUUU | -0.365 |
